Measured values collected from several papers.
Compare with care: the assays were run in different laboratories. ± marks the error that the study gave.

Cc1cc(Nc2ccc(S(F)(F)(F)(F)F)cc2)n2nc(C(C)(F)F)nc2n1
adverse event Chills (Plasmodium vivax malaria patients; oral, 600 mg): 0%

Cn1cnc2c(F)c(Nc3ccc(Br)cc3Cl)c(C(=O)NOCCO)cc21
central volume of distribution (human, plasma; oral, dose not given, transit compartment absorption): 38 L

CN(C(=O)n1cnc(-c2cccnc2)c1)C1CCCCC1
concentration (Wistar rat, cerebellum; oral, 10 mg/kg/day of BIA 10-2474, 72 h, repeated 5 days): 5.9 ± 0.3 ng/g

O=C1Nc2ccc(Cl)cc2[C@@](C#CC2CC2)(C(F)(F)F)O1
trough plasma concentration (human, plasma; oral, 600 mg, day 30, median): 2310 ng/mL

COc1ccc2[nH]c([S+]([O-])Cc3ncc(C)c(OC)c3C)nc2c1 (centres unmarked)
AUC(0-t) (healthy Chinese volunteers, plasma; oral, 20 mg, fed, CYP2C19 normal metabolizers): 425 ± 560 ng·h/mL

COc1nnc2ccc(N3CCC(c4ccc(OCCN5CCN(C)C(=O)[C@H]5C)cc4)CC3)nn12
terminal half-life (human, plasma; oral, 30 mg once daily, multiple dose, monotherapy): 3.73 h

CCO[C@H]1CCN(Cc2c(OC)cc(C)c3[nH]ccc23)[C@H](c2ccc(C(=O)O)cc2)C1
total Cmax (human mild hepatic impairment, plasma; oral, 200 mg single dose, mean): 3750 ng/mL

Cc1ccc([C@@H]2O[C@H](CO)[C@@H](O)[C@H](O)[C@H]2O)cc1Cc1ccc(-c2ccc(F)cc2)s1
urinary magnesium excretion change (Japanese type 2 diabetes patients; 400 mg, day 6, 24 h urine collection; relative to: baseline): -9.94 mg

CC1(C)CCC(CN2CCN(c3ccc(C(=O)NS(=O)(=O)c4ccc(NCC5CCOCC5)c([N+](=O)[O-])c4)c(Oc4cnc5[nH]ccc5c4)c3)CC2)=C(c2ccc(Cl)cc2)C1
dose-normalised C6 (C6/D) (UPLC-MS/MS; responders, good/moderate prognosis; oral, dose not given, 6 h, normalised to dose per body weight): 0.847 ± 0.896 µg/mL per mg/kg

CCOc1c([C@H](C)n2nc(C)c3c(N)ncnc32)cc(Cl)c(F)c1[C@@H]1CNC(=O)C1
observations with HR above 100 bpm (ECG; previously treated B-cell malignancy patients; oral, 45 mg once daily, baseline below thresholds): 0%

Nc1nc2c(nc([N+](=O)[O-])n2[C@@H]2O[C@H](CO)[C@@H](O)[C@H]2O)c(=O)[nH]1
depurination half-life (citrate phosphate buffer; 0.5 mM, pH 2.15, 37 °C): 5.35 h

COc1ccc(C(O)COc2ccc(-c3csc(-c4ccc(OCC(O)c5ccc(OC)c(OC)c5)cc4)n3)cc2)cc1OC (centres unmarked)
tlast (mouse C57BL/6J, plasma; intravenous, 3 mg/kg): 24 h

Cc1ccc(C(=O)N(CCCN)C(c2nc3snc(C)c3c(=O)n2Cc2ccccc2)C(C)C)cc1 (centres unmarked)
grade ≥3 dysphagia patients (human patients; intravenous, 16 mg/day): 0%

Cc1cc(-c2nnc(N)nc2-c2ccc(F)cc2)cc(Cl)n1
terminal half-life (human patients, plasma; oral, 150 mg capsule once daily, multiple doses, arithmetic mean): 6.21 h

CCN1/C(=C/C(C)=O)Sc2ccc(F)cc21
PR interval change (cynomolgus monkey; oral, 30 mg/kg, 6 h post-dose; relative to: pre-dose): 97.3 ± 3.4%

COc1c(N2C[C@@H]3CCCN[C@@H]3C2)c(F)cc2c(=O)c(C(=O)O)cn(C3CC3)c12
QTcI change from baseline (healthy volunteers; oral, 400 mg single dose, day 5, 3.00 h): 6.6 ms

CCCCCN1C[C@H](O)[C@@H](O)[C@H](O)[C@@H]1CO
mean brain concentration (LC-MS/MS; Hexb-/- mice, male, brain; 300 mg/kg/day): 296 ng/g

COc1ccc2c(=O)n(C)c(-c3ccccc3)nc2c1
tissue concentration (male Sprague-Dawley rat, large intestine; oral, 30 mg/kg, 2 h): 5500 ng/g

CCN1CCN(Cc2ccc(Nc3ncc(F)c(-c4cc(F)c5nc6n(c5c4)[C@H](C)CCC6)n3)nc2)CC1
Tmax (human, plasma; 400 mg single dose, median): 9.48 h

C=CC(=O)Nc1cc(Nc2nccc(Nc3cc(Cl)c(F)cc3C(C)(C)O)n2)c(OC)cc1N1CC[C@@H](N(C)C)C1
intercompartmental clearance (two-compartment PK model; mouse): 0.42 L/h

CCc1cc(C(=O)NC)c2nccc(N3CCc4c(cc(Cn5ccnc5)cc4-c4cn(C)nc4C(F)(F)F)C3=O)c2c1
brain weight change (Sprague Dawley rat; oral, 100 mg/kg once daily, 7 days; relative to: vehicle): 1.55%

O=C1CN(c2nc(=O)c3cc(C(F)(F)F)cc([N+](=O)[O-])c3s2)CCN1C1CCCC1
fraction unbound (equilibrium dialysis; CD-1 mouse plasma; 1 µM, 18 h, pH 7.4): 0.03

C=CC(=O)Nc1cc(Nc2nccc(-c3cn(C)c4ccccc34)n2)c(OC)cc1N(C)CCN(C)C
recovery (storage stability; human dried blood spot; 10 d, on ice, MQC level): 73.1%

C[Si]1(C)O[Si](C)(C)O[Si](C)(C)O[Si](C)(C)O[Si](C)(C)O1
log KOA (1-octanol/air; 25 °C): 4.95

CCCC1CCC(c2ccc(-c3ccc(F)c(F)c3)cc2)CC1 (centres unmarked)
fetal accumulation (Sprague-Dawley rat, female, fetus; 5000 ng/mL in perfusate, 50 (unit not given), high dose, mixture of 21 LCMs): 1.23 ± 1.71 ng/g

CC[C@H](C)CCCCC(=O)N[C@@H](CCN)C(=O)N[C@H](C(=O)N[C@@H](CCN)C(=O)N[C@H]1CCNC(=O)[C@H]([C@@H](C)O)NC(=O)[C@H](CCN)NC(=O)[C@H](CCN)NC(=O)[C@H](CC(C)C)NC(=O)[C@@H](Cc2ccccc2)NC(=O)[C@H](CCN)NC1=O)[C@@H](C)O
urinary excretion (human, normal renal function, urine; intravenous, 0.75 mg/kg, 0-12 h, arithmetic mean): 1.67%

C[C@@H]1OC(=O)[C@H](Cc2ccccc2)[C@H]1O
share of total radioactive residue (laying hens, female, liver; oral, 10.7 mg/kg dry feed, 7 days): 11.6 % TRR

CC(C)n1c(Nc2cccnc2)nc2cnc(Nc3ccc(N4CCN(C)CC4)cc3)nc21
subjects with adverse event (refers to: LDL cholesterol increased; healthy male subjects; oral, 150 mg, study, together with: rifampin): 0%

NS(=O)(=O)c1ccc(CNc2ccnc(Nc3cccc(CN4CCOCC4)c3)n2)cc1
effective permeability (PAMPA; PBS; 5 h, pH 7.4): 0.456 ×10⁻⁶ cm/s

C=CC[C@@H]1/C=C(\C)C[C@H](C)C[C@H](OC)[C@H]2O[C@@](O)(C(=O)C(=O)N3CCCC[C@H]3C(=O)O[C@H](/C(C)=C/[C@@H]3CC[C@@H](O)[C@H](OC)C3)[C@H](C)[C@@H](O)CC1=O)[C@H](C)C[C@@H]2OC
fractional magnesium excretion (Wistar Kyoto rats, male; ip, 0.5 mg/kg/day, day 18; relative to: vehicle): ~1.5 fold

CC[C@H](C)[C@H](NC(=O)[C@H](CO)NC(=O)[C@H](CCCNC(=N)N)NC(C)=O)C(=O)N[C@H]1CSSC[C@@H](C(=O)N[C@H](C(N)=O)[C@@H](C)O)NC(=O)[C@H](CCCNC(=N)N)NC(=O)[C@H](Cc2c[nH]cn2)NC(=O)[C@H](C)NC(=O)CNC(=O)[C@H](Cc2c[nH]c3ccccc23)NC(=O)[C@H](CC(=O)O)NC(=O)[C@H](CCC(N)=O)NC(=O)[C@H](Cc2ccc(O)cc2)NC(=O)[C@H](C(C)C)NC1=O
retention factor (isocratic RP-HPLC, C18; 32% acetonitrile, phosphate pH 7.4, 1% TFA; 25 °C): 0.31 ± 0.03

CCOCc1nc(O)c(-c2nnc(Cc3ccc(Cl)cn3)o2)c(O)c1-c1c(OC)cccc1OC
plasma concentration (rat, plasma; subcutaneous infusion, 3 mg/kg/day, day 7 after surgery): 1830 nM

O=C(c1cccnc1-c1ccncc1)N1CCC(O)(Cc2ccccc2)CC1
Cmax (healthy Japanese adults, plasma; oral, 1200 mg single dose, geometric mean, PK/QTc set): 9280 ng/mL

CC[C@H](C)[C@H](NC(=O)[C@H](CO)NC(=O)[C@H](CCCNC(=N)N)NC(C)=O)C(=O)N[C@H]1CSSC[C@@H](C(=O)N[C@H](C(N)=O)[C@@H](C)O)NC(=O)[C@H](CCCNC(=N)N)NC(=O)[C@H](Cc2c[nH]cn2)NC(=O)[C@H](C)NC(=O)CNC(=O)[C@H](Cc2c[nH]c3ccccc23)NC(=O)[C@H](CC(=O)O)NC(=O)[C@H](CCC(N)=O)NC(=O)[C@H](Cc2cccc3ccccc23)NC(=O)[C@H](C(C)C)NC1=O
retention factor (RP-HPLC, C18; 28% acetonitrile isocratic; pH 7.4): 4.007 ± 0.006

CC(=O)N[C@@H](CS)C(=O)O
pulmonary solubility: 670 µg/mL

CC(C)(C(=O)N1CCOc2c(C#N)cncc2C1)C(F)F
subjects with TEAE (refers to: ventricular extrasystoles; healthy humans, both sexes; oral, 30 mg single dose): 0%

Cl.[2H]C([2H])([2H])CC(=O)c1cnc(NC(=O)C2CC2)cc1Nc1cccc(-c2ncn(C([2H])([2H])[2H])n2)c1OC
Vz/F (geometric mean; human; oral, 10 mg single dose, fasted, liquid): 164 L

O=C1NCCc2nc(OCc3cccc(F)c3)ccc21
Irwin test score (refers to: loss of Righting; Sprague-Dawley rat male; oral, 100 mg/kg, 1 h; direction not given): 0

CCCCC[C@H]1CC[C@H](c2ccc(OCC)c(F)c2F)CC1
fetal accumulation (rat, fetus; 10 ng/mL in perfusate, low dose, mixture of 21 LCMs): 1.12 ± 1.07 ng/g

C=CCN1CC(=O)N2[C@@H](Cc3ccc(O)cc3F)C(=O)N(Cc3cccc(N4CC(N5CCN(CC)CC5)C4)n3)C[C@@H]2N1C(=O)NCc1ccccc1
treatment-related adverse events (refers to: Vomiting; advanced solid tumour patients; all doses, dose-escalation part, grade ≥3): 0%

Cn1cc(Nc2nccc(-c3ccc4c(c3)CN(C3COC3)CC[C@H]4NC(=O)c3cn(C(C)(C)C)nn3)n2)cn1
lymphocyte count change (human, whole blood; 50 mg twice daily, day 14; relative to: pre-dose baseline): 3.03%

N#Cc1ccc2c(c1)[C@H]1CCCN(C(=O)c3ccc4[nH]cnc4c3)[C@H]1C2
androstenedione level (human, male; 10 mg, day 15): 6.3 nmol/L

N[C@@H]1c2ccccc2OC12CCN(c1cnc3c(N4CCCc5ncccc54)n[nH]c3n1)CC2
effective half-life (patients advanced solid tumours, plasma; oral, 150 mg once daily, cycle 1 day 15): 105 h

N#Cc1ccc2c(-c3ccncc3)c(-c3ccc(F)cc3)nn2c1
MRT (CD1 mouse female; oral, 25 mg/kg): 11 h

Cc1ccc(Sc2ccccc2N2CCNCC2)c(C)c1
participants with TEAE (refers to: AST increased; healthy adult women; oral, 10 mg daily, 12 days): 0%

O=C(O)CCC(=O)O.[2H]C([2H])([2H])Oc1cc(C)c2[nH]ccc2c1CN1CC[C@@H](C2CC2)C[C@H]1c1ccc(C(=O)O)cc1
TEAE elevated monocyte (healthy Chinese subjects; 100 mg twice daily, multiple ascending dose): 0%

Cc1cc(C)c(CNC(=O)c2cc(Cl)c3c(c2C)O[C@@](C)([C@H]2CC[C@H](N(C)C)CC2)O3)c(=O)[nH]1
patients with TEAE (refers to: Alopecia; human patients; oral, 200 mg once daily, 1 day onset day 14): 4.2%

COc1ccc2c(c1)CN(C(=O)CCN1CCC(Cc3ccccc3)CC1)CC[S@@+]2[O-]
systolic blood pressure (telemetry; conscious male beagle dogs; intravenous, 4 mg/kg, 2 h): 128 ± 7 mmHg

C=CC(=O)N(C)CCOc1c(N)ncnc1-c1cc(F)cc(NC(=O)c2ccc(C3CC3)cc2F)c1C
AUC(0-inf) per dose (human; oral, 50 mg, day 3, median, given alone): 4.79 ng·h/mL/mg

O=C(Nc1nc2cccc(-c3ccc(CN4CCS(=O)(=O)CC4)cc3)n2n1)C1CC1
treatment-emergent adverse events (refers to: paraesthesia; human rheumatoid arthritis patients; oral, 200 mg once daily, 4 weeks, regardless of relatedness): 0%

Some of these lines once more:
N[C@@H]1c2ccccc2OC12CCN(c1cnc3c(N4CCCc5ncccc54)n[nH]c3n1)CC2
effective half-life (patients advanced solid tumours, plasma; oral, 150 mg once daily, cycle 1 day 15): 105 h

N#Cc1ccc2c(-c3ccncc3)c(-c3ccc(F)cc3)nn2c1
MRT (CD1 mouse female; oral, 25 mg/kg): 11 h

Cc1ccc(Sc2ccccc2N2CCNCC2)c(C)c1
participants with TEAE (refers to: AST increased; healthy adult women; oral, 10 mg daily, 12 days): 0%

O=C(O)CCC(=O)O.[2H]C([2H])([2H])Oc1cc(C)c2[nH]ccc2c1CN1CC[C@@H](C2CC2)C[C@H]1c1ccc(C(=O)O)cc1
TEAE elevated monocyte (healthy Chinese subjects; 100 mg twice daily, multiple ascending dose): 0%

Cc1cc(C)c(CNC(=O)c2cc(Cl)c3c(c2C)O[C@@](C)([C@H]2CC[C@H](N(C)C)CC2)O3)c(=O)[nH]1
patients with TEAE (refers to: Alopecia; human patients; oral, 200 mg once daily, 1 day onset day 14): 4.2%

COc1ccc2c(c1)CN(C(=O)CCN1CCC(Cc3ccccc3)CC1)CC[S@@+]2[O-]
systolic blood pressure (telemetry; conscious male beagle dogs; intravenous, 4 mg/kg, 2 h): 128 ± 7 mmHg
